Measured values of several laboratories.
Numbered parts are unrelated; each lists some results of a single study.
Sequence of UniProt Q04759 (whole entry, looked up): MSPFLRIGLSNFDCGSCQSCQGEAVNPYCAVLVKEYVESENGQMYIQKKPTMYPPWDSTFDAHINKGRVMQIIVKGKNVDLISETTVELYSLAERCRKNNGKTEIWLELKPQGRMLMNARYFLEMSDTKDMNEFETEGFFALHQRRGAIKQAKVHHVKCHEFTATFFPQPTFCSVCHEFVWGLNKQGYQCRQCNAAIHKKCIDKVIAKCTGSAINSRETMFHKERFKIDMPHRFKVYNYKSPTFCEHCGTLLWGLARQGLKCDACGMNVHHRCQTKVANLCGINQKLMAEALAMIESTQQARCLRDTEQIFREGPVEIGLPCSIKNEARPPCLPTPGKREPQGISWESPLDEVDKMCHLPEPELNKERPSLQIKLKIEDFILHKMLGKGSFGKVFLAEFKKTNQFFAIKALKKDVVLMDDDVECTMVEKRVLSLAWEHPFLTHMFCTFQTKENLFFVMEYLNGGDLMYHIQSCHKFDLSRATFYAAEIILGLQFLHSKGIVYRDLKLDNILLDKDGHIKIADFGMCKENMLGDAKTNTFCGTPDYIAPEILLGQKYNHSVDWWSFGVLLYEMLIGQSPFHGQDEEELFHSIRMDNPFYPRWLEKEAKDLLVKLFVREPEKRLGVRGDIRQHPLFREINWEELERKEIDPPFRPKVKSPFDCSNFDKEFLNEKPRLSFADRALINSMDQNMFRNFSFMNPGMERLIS
Sequence of UniProt Q8IVW4 (whole entry, looked up): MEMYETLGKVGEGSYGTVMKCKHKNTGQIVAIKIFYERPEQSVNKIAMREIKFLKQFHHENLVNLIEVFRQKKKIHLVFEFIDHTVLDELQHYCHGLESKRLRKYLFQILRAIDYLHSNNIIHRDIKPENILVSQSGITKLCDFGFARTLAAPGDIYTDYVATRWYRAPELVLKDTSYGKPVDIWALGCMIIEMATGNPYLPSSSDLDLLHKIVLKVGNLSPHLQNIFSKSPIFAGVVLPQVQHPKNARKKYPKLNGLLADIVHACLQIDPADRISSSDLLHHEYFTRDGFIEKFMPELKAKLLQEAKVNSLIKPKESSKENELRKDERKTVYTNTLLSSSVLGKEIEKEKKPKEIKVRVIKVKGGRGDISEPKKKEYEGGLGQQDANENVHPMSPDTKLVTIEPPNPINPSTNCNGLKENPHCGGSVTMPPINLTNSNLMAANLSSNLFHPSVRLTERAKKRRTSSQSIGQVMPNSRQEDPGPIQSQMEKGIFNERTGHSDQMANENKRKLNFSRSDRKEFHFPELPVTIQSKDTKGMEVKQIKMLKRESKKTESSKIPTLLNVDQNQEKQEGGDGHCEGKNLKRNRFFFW
Sequence of UniProt Q13555 (whole entry, looked up): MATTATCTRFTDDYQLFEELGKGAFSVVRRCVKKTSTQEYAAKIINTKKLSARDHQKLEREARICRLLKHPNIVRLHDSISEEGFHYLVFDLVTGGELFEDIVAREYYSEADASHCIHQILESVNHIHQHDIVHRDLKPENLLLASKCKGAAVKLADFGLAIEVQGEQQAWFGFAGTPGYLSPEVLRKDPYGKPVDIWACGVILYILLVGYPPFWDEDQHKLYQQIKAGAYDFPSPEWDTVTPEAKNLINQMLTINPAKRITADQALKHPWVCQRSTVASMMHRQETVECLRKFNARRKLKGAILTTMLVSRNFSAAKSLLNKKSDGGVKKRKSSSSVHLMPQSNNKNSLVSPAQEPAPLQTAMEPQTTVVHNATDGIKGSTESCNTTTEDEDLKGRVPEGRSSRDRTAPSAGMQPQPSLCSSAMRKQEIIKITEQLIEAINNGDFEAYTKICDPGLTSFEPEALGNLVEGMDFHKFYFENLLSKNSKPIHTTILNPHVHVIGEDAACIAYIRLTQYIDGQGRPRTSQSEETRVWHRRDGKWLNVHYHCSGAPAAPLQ
Sequence of UniProt O96017 (whole entry, looked up): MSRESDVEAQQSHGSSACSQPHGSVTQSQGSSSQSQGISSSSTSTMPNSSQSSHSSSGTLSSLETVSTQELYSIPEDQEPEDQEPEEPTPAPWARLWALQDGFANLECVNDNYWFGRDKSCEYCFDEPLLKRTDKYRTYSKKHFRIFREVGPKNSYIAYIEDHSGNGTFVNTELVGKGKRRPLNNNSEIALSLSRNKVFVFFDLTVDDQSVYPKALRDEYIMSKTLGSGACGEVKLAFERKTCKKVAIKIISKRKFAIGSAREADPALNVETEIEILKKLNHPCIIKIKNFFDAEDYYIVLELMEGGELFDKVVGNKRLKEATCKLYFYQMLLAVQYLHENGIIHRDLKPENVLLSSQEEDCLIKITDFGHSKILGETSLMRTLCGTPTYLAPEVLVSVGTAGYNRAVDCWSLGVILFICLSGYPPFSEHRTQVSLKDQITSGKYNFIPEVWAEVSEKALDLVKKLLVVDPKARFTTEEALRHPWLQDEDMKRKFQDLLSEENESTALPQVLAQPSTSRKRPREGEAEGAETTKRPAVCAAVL

Set 1
SMILES: O=C(Nc1cnn(-c2csc(C(=O)NC3COC3)c2)c1)Nc1c(F)cccc1Cl
Effect on: enzyme activity
Tested at: 5 µM
Measurement: remaining activity
MAP3K2 (Homo sapiens, UniProt Q9Y2U5); reference: untreated control: 78.6%
SGK2 (Homo sapiens, UniProt Q9HBY8); reference: untreated control: 88.5%
CAMK1G (Homo sapiens, UniProt Q96NX5); inhibitor: 94%

Set 2
Cell line: mouse MPNST tumor cells
Method: high-content immunofluorescence imaging
Item: nuclear SOX9
Tested at: 10 µM
Time: 12 h
Notes: mean of 2 replicates
Reference: DMSO control
Direction: higher = more nuclear SOX9
Measurement: nuclear SOX9 intensity
OC(c1ccc(-c2ccc(CN3CCN(Cc4ccncc4)CC3)cc2)c(F)c1)(C(F)(F)F)C(F)(F)F: 171 % of DMSO
COc1cc(N)c(Cl)cc1C(=O)NC1CCN(Cc2ccccc2)CC1: 94.9 % of DMSO
O=C(Nc1ccc(F)cc1)N1CCc2ccccc2C1c1ccc(C(F)(F)F)cc1 (stereo not shown): 116 % of DMSO

Set 3
Target: DNA polymerase theta, ATPase domain (POLQ, Homo sapiens, UniProt O75417)
Sequence of UniProt O75417 (whole entry, unmodified, looked up): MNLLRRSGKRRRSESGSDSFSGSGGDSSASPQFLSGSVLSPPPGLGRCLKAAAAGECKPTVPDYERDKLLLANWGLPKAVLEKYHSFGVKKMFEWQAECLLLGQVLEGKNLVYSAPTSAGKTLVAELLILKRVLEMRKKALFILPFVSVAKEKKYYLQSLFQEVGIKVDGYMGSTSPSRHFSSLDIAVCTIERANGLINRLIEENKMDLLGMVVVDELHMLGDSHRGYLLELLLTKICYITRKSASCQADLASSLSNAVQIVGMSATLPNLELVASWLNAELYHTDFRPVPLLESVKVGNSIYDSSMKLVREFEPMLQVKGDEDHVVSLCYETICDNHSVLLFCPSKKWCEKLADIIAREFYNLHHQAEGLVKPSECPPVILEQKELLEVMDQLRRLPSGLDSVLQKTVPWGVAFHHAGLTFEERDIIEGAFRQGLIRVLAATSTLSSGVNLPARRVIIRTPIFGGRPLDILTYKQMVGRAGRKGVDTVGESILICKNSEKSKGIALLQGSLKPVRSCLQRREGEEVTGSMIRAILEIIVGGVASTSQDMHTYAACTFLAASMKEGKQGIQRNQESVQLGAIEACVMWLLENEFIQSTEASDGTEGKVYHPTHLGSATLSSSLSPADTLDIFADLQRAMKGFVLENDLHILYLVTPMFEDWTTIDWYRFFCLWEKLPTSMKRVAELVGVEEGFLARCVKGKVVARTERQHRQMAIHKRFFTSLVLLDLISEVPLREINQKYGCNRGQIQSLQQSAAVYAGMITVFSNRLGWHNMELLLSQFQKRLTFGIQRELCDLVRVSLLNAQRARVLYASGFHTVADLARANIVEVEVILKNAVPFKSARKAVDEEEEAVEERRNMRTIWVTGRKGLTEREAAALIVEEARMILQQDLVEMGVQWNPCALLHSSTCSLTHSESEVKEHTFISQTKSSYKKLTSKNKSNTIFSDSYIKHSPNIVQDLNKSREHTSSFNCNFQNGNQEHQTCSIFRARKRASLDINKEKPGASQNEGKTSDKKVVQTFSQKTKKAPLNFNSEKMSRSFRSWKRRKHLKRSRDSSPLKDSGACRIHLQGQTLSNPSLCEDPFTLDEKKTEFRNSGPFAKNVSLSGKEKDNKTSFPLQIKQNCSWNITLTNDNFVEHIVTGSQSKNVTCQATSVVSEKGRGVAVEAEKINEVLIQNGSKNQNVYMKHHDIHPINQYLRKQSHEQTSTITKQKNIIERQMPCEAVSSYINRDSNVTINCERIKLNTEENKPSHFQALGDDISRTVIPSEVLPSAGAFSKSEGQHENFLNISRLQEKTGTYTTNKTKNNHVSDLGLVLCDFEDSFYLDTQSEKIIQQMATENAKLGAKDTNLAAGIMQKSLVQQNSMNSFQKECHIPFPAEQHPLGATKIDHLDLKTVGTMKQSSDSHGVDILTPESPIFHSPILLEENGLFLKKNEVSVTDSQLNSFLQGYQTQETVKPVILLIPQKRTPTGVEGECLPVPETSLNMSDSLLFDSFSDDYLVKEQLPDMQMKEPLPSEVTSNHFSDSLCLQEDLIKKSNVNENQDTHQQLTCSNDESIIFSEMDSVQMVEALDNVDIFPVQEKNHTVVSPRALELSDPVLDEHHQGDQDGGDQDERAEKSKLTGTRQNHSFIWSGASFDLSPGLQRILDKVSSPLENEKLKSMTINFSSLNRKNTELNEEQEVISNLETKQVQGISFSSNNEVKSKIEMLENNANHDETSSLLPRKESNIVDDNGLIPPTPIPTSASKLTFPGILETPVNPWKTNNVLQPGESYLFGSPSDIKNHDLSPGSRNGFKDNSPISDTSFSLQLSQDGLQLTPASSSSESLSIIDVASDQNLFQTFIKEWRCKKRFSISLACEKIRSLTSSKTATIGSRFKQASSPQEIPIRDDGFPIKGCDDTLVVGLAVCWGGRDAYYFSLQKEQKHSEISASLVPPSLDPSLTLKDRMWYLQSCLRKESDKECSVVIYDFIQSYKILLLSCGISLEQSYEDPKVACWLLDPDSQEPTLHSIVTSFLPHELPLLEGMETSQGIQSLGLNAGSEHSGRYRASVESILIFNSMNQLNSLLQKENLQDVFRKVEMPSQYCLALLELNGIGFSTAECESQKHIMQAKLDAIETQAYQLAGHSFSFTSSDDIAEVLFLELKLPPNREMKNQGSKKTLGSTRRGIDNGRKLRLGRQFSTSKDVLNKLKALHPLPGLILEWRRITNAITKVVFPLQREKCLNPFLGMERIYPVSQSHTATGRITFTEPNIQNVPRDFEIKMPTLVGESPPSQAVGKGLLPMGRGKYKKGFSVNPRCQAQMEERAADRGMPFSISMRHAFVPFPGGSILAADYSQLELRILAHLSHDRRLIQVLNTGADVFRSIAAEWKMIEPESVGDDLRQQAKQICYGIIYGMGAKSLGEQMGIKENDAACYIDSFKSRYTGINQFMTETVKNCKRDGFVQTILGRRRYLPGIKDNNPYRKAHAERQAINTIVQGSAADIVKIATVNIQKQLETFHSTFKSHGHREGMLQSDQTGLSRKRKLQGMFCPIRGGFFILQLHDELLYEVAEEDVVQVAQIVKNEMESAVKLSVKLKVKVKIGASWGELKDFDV
Effect on: enzyme activity
Mode: inhibitor
Tested at: 77 µM
Reference: untreated
Measurement: remaining activity
CC(=O)[C@@]1(O)CC[C@H]2[C@@H]3C[C@H](C)C4=CC(=O)C=C[C@]4(C)[C@@]3(F)[C@@H](O)C[C@@]21C: 99.4%
NCCc1cc[nH]n1: 96.5%
CC[C@]12CCCN3CCc4c(n(c5ccccc45)C(=O)C1)[C@@H]32: 102%

Set 4
Structure (SMILES): O=C(NS(=O)(=O)c1ccc(NCC2CCOCC2)c([N+](=O)[O-])c1)c1ccc(N2CCN(Cc3ccc(C(F)(F)F)cc3-c3ccc(Cl)cc3)CC2)cc1Oc1cnc2[nH]ccc2c1
Effect on: cell-free assay
Method: competition with immobilised ligand
Tested at: 1 µM
Measurement: remaining binding
IKBKB (Homo sapiens, UniProt O14920): 74%
MAPK1 (Homo sapiens, UniProt P28482): 87%
CAMK2G (Homo sapiens, UniProt Q13555): 88%
MAP3K20 (Homo sapiens, UniProt Q9NYL2): 100%
FLT3 (Homo sapiens, UniProt P36888, F691L/ITD): 66%
PRKCQ (Homo sapiens, UniProt Q04759): 100%
EPHA4 (Homo sapiens, UniProt P54764): 100%
CDKL3 (Homo sapiens, UniProt Q8IVW4): 95%
NTRK3 (Homo sapiens, UniProt Q16288): 100%
PDGFRA (Homo sapiens, UniProt P16234): 100%
CHEK2 (Homo sapiens, UniProt O96017): 95%

Mixed results
COc1ccc(C)cc1N(CC(=O)Nc1ccc(S(=O)(=O)N2CCCC2)cc1)S(C)(=O)=O — remaining compound (mouse, microsomes or S9; 2 µM, 0.5 h): 0.0602%
[H]/N=C(/NC)NCCC[C@H](N)C(=O)O — inhibition (Sarcocystis neurona; parasite growth; 10 µM, 96 h): -14.5%

Some of these lines once more (set 2):
OC(c1ccc(-c2ccc(CN3CCN(Cc4ccncc4)CC3)cc2)c(F)c1)(C(F)(F)F)C(F)(F)F: 171 % of DMSO
COc1cc(N)c(Cl)cc1C(=O)NC1CCN(Cc2ccccc2)CC1: 94.9 % of DMSO
O=C(Nc1ccc(F)cc1)N1CCc2ccccc2C1c1ccc(C(F)(F)F)cc1 (stereo not shown): 116 % of DMSO
